Assay results pooled from the literature.
Parts stem from different laboratories: compare values within a part only. Substitutions count along the parent as printed.

Study 1
Target: Sal-like protein 4, full length isoform A (SALL4, Homo sapiens, UniProt Q9UJQ4, residues 1-1053)
Chain of UniProt Q9UJQ4 (whole entry, looked up): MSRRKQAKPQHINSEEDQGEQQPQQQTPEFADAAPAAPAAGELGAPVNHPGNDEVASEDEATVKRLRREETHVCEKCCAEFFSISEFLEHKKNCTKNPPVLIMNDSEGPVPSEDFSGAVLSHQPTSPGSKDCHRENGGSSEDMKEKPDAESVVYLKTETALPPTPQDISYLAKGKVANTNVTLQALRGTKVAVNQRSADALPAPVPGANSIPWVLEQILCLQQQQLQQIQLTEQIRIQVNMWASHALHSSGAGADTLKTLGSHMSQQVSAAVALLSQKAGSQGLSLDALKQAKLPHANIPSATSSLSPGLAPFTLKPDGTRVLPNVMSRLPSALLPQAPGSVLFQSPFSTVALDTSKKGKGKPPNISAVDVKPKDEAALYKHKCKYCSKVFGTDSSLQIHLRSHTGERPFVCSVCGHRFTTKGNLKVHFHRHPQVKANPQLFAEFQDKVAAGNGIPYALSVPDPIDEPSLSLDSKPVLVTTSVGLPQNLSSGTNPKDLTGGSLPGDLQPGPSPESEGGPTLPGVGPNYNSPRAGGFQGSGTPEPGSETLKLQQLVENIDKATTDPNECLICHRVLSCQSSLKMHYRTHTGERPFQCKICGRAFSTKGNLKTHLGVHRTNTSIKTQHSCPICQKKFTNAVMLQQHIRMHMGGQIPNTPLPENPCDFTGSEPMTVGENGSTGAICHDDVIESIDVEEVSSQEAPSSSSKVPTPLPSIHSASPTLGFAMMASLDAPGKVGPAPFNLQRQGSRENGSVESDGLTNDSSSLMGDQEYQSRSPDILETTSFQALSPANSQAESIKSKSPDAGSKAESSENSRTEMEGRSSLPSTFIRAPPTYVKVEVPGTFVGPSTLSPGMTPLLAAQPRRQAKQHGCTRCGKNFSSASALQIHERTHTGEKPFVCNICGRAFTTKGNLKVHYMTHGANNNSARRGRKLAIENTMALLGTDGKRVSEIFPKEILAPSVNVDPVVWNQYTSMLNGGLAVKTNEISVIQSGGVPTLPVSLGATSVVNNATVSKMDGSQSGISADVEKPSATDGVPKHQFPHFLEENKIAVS
Technique: universal PBM
Molecule type: double-stranded DNA, one strand shown
Matrix: in vitro
Concentration: 600 nM
Setting: 8-mer, flanks averaged, mean of replicates
Reading: higher = stronger binding
Quantity: E-score
CATGTGAA: 0.00178
GCTCTGCC: -0.27
GCATTTTA: 0.266
ACAAGCTC: -0.185
CGTCAGCC: -0.248
ACTCCAGG: -0.219
ATTGGCCC: -0.164
AGGATCTG: -0.209

Study 2
Target: CCND2, cyclin fold, Cln2 fusion (human)
Technique: yeast growth competition, sequencing
Matrix: yeast
Setting: weak parent motif
Reference: not given
Reading: higher = stronger binding
Quantity: normalised enrichment score
Parent: viral docking peptide; KKVKRRLFETREL
KKVKRRAFETREL [L7A]: 0.346
KKVKARLFETREL [R5A]: 0.0854
KKVKRALFETREL [R6A]: -0.0849
KKVKKRLFETREL [R5K]: 0.135
KKVARRLFETREL [K4A]: -0.22
KAVKRRLFETREL [K2A]: 0.548
KKVKRRLFATREL [E9A]: -0.107

Study 3
Target: TAR DNA-binding protein 43, full length, His tag (TARDBP, Homo sapiens, UniProt Q13148, residues 1-414)
Technique: RNA Bind-n-Seq
Molecule type: RNA
Matrix: in vitro
Concentration: 20 nM
Setting: 6-mer, flanks averaged, single round
With: 150 mM LiCl
Reference: input library
Reading: higher = stronger binding
Quantity: 6-mer enrichment (R)
ACGCAC: 0.858
CCUCCC: 1.16
UAGAUG: 1
CCACAG: 0.903
UUUGGU: 1.32
CCGGUA: 0.91
CUCGGA: 0.892
AGGACC: 0.9

Study 4
Target: Probable WRKY transcription factor 11, DNA-binding domain (WRKY11, Arabidopsis thaliana, UniProt Q9SV15, residues 228-325)
Technique: DNA-protein interaction ELISA
Molecule type: double-stranded DNA, one strand shown
Matrix: in vitro, bacterial lysate
Concentration: not given
Setting: whole dsDNA probe, crude lysate protein
Reference: highest signal in screen
Reading: higher = stronger binding
Quantity: relative absorbance
Target sequence (chain): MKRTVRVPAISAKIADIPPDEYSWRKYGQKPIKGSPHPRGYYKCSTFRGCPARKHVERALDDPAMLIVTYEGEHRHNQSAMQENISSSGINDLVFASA
AAAAAAGAGAATTGTCAGTGCCCAACAAAA: 18.2 % of maximum
AAAAAATCTTCACCTCACTTCGGTTTAAAA: 18.2 % of maximum
AAAAAAGGTCTGGACGATCACCGGGAAAAA: 13.8 % of maximum
AAAAAATAAGTAACCGAACGAAACTCAAAA: 16.1 % of maximum
AAAAAAGGCCACGGTAACCCCTTTTGAAAA: 17.6 % of maximum
AAAAAACCCATCCTTCGTTCCATCGTAAAA: 19 % of maximum
AAAAAACGGGATTCGAAACTTTTTGTAAAA: 13.5 % of maximum
AAAAAAGTGTTAGATTGTAGTTGATAAAA: 17.3 % of maximum
